Published values collected from several papers.
Every numbered part comes from another study and shows a few of its results, in no order. Changes are numbered by the printed parent chain.

Sample 1
Target: RING finger protein unkempt homolog, zinc fingers 1-6, GST-SBP tag (UNK, Homo sapiens, UniProt Q9C0B0, residues 30-357)
Chain of UniProt Q9C0B0 (30-357, looked up): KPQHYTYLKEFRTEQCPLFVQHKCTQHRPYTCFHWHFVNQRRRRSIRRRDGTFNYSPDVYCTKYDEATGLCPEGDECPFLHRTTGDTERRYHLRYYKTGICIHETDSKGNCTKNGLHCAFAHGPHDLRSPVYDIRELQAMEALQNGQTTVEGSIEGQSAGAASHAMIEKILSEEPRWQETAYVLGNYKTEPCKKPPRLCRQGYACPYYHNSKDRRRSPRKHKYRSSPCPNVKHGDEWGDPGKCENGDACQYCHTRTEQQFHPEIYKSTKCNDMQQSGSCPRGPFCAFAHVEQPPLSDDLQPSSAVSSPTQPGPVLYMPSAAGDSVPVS
Method: RNA Bind-n-Seq
Molecule type: RNA
Sample: in vitro
Concentration: not given
Notes: RNA with constant flanks, ends assumed
Baseline: input RNA pool
Reading: higher = stronger binding
`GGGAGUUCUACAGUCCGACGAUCGAGGAAUGUAAUUCCCUGAGUGAUGUGUUAGAUGCAUUUUCAAAAGCGCCCACAUUUCCCCGCCGCAACUAUUUCACAGCAAUGUGGACAAUUGCCAAAAGACUGUCUGAUGACCAGAAGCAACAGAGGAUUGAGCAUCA` has a bound/input enrichment of 0.202 ratio.
With `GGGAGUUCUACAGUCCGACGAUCAUCCCACUGGGGAACUAGUCCUGUCCAUCUGGUGUUGGCGUGCUGGCUGCACACUUUGUUUCCGGGCCUGAACACCUGUGUGUAUGUGUGUGUGUAUGUGUGUGUGUGCGUGCGUGUGCUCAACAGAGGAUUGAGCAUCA` the bound/input enrichment was 0.346 ratio.
`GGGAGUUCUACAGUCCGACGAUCUAAUAAAACCAUUUUAUCUUUAAAAUAGUAAGUAGAAAUCUAAAUAAAUUUUAUGAGCCGGCAGUAACUUUUCUGUUUAGUGAGUGUACUUGCUUUGCUCUUAUCAUUGGUCUUACCUUUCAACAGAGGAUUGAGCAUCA` has a bound/input enrichment of 7.05 ratio.
For `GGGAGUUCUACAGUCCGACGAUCCUCAGGUGCUUGACCAAGUACUCCCAGAUCCCUAGUGUCCUGGUCAUGAACAAGGCCGAUUGUUUGAAGCAGAAGUCAGUUCUCCUGGAGCUCACGGCAGCCCUCACUGAAGGUGUGGUCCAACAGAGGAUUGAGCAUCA`, the bound/input enrichment was 0.224 ratio.
For `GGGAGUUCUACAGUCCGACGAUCACAACUCUGGAUAGAGCUGCGUGUUUGCCACCUGGAGACCAUAAUGCAUUAUAUGUAAACCGCUUCCCACUUCUGGACCCAUCUGAUGCACCUUUUCCCUCACUCGAUUCCCCGGGAAAACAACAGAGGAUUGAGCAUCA`, the bound/input enrichment was 0.157 ratio.
`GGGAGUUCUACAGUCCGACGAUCGGACGGGCACAGCUGGCGUGACCACCAUGAGUCUGGGAGCACCUCCCACUAUGUCAAACUUCCGCCCUUUGACUAUUCCUCCUGCUAGCGUGAAGCAGCCUCAACAGAGACCAACCGAUACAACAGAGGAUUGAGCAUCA` gave a bound/input enrichment of 0.21 ratio.
The bound/input enrichment of `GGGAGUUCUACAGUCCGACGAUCUUUACUUUUUUUGUGUGUUAAUGGUGUGUGCUCCCUCUCCCUCUCUUCCCUUUCCUGACCUUCCGUCUUUCACUUCCAAUUUUGUGGAAUGAUAUUUUAGGAAUAACGGACUUUUAAAGACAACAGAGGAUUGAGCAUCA` is reported as 0.856 ratio.
The bound/input enrichment of `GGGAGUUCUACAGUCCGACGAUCCUCUGUCCUGAAUGUGAGAAUCCUGAAACAGAUUUGCAUGUCAAUCCAAAGAAGCAAACAACCGGUAAUUCUUGUAAAGCCUGUGGCUAUCGAGGCAUGCUUGACACACAUCAUAAACUCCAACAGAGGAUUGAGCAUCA` is reported as 0.175 ratio.
The bound/input enrichment of `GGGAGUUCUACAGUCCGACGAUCAUGCAGUGGCUUGGGAAACAUGUGGACUCCGAGGGAGAAAUAAAAUCCGGCCAGCUCUCUCUCCGAUUUGUUUCAUCCUACGUGUCUGAAGUAGAAAUAACCCCAUCUUGUAUACCUGUGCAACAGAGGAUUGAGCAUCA` is reported as 0.615 ratio.
With `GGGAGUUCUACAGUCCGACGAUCAUUGUGGGAGCGCUGAUGGCCAGUGGCAAAGAAGUGGCUGGGAAGAUCCCCAAAGGGAAGUCCGUCGACUUUGAAGCCAUGACAGCCCCUGGCUCAGAGGCCUUCAGCAAAAUAGCAAAACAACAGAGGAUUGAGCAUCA` the bound/input enrichment was 0.18 ratio.
For `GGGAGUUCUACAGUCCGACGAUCGGUCGUGGUGUUUUAAAAGCAUAAGUUACCUGUUUGCACUGUUUUAAGAUAGGAAAAAAAAACCGUGGGCAAGGUGAACAUCAGACGUAAAUUUGUGUGUUUUUAUUUUGUCAUGCUCUUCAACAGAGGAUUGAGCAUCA`, the bound/input enrichment was 0.423 ratio.

Sample 2
Target: CCNB3, cyclin fold, Cln2 fusion (human)
Method: yeast growth competition, sequencing
Sample: yeast
Notes: weak parent motif
Baseline: not given
Reading: higher = stronger binding
Starting sequence: REV3L docking peptide (human); PPVIIKYIIINRF; partner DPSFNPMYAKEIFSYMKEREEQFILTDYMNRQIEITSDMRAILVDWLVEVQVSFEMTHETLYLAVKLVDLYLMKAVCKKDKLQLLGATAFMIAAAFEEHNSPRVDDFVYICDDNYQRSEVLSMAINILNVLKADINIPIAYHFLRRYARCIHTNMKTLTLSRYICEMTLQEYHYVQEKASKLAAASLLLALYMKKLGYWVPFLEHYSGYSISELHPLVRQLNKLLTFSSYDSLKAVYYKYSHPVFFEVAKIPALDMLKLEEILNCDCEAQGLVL
`PPVIIKYIIINAF [R12A]`: “normalised enrichment score” 0.467.
For `PPVIIKAIIINRF [Y7A]`, “normalised enrichment score” read 0.397.
For `PPVIIKYIAINRF [I9A]`, “normalised enrichment score” read 0.191.
For `PPVIIAYIIINRF [K6A]`, “normalised enrichment score” read 0.131.
For `PPVIIKYIIIARF [N11A]`, “normalised enrichment score” read 0.0691.
`APVIIKYIIINRF [P1A]`: “normalised enrichment score” 0.18.
`PPAIIKYIIINRF [V3A]` — result for “normalised enrichment score”: 0.227.

Sample 3
Target: RNA binding protein fox-1 homolog 2, RRM domain, GST-SBP tag (RBFOX2, Homo sapiens, UniProt O43251-10, residues 100-194)
Method: RNA Bind-n-Seq
Molecule type: RNA
Sample: in vitro
Concentration: 365 nM
Notes: natural RNA segment, single round, ends assumed
Baseline: no-protein control
Reading: higher = stronger binding
Residues (chain): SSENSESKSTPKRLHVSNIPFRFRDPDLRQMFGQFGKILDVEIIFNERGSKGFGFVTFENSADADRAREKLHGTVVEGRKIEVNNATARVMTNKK
`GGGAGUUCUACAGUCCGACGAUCGAAAGGUCAGUAUUUUAGCAUUUUAAAAGAUGAGUUAUAUAAUGUCUGCUUCCAGCCAGUCUGCAACAUCUAGCCAUACCUUUCUUAUGCAAGCCAUUCAGUUAUCAGGAUGGAAUUCUCGGGUGCCAA`: “RBNS enrichment (R)” 0.474.
`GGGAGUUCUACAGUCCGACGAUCUUUCUAACUUUUAUAUCUUAAAAGCAGAGCACCUGUUUAAGCAUUGUACCCCUAUUGUUAAAGAUUUGUGUCCUCUCAUUCCCUCUCUUCCUCUUGUAAGUGCCCUUCUAUGGAAUUCUCGGGUGCCAA`: “RBNS enrichment (R)” 1.52.
`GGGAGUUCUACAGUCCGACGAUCUUGAUUUGACCAGCAUGCACUCAGAUUAGCUGCUCGACAGAGGUGUCCCCUUUUCAAUGAACCAUCAUGACUGUCCCAGUGUCGGAUGCAAGGGUGCCACGGGCUCUGAAUGGAAUUCUCGGGUGCCAA`: “RBNS enrichment (R)” 7.49.
For `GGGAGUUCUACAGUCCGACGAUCUGGGUUUUUGUCAGAUCCAUGGUCUUAGGACUUGACUGAUGAGCUUUCAGUGAAGAAUCCUCUAAGAUAAAACUUCUAUUUAAAGACUUUAACUAGAAAGUGUUUAUUUUUGGAAUUCUCGGGUGCCAA`, “RBNS enrichment (R)” read 0.395.
`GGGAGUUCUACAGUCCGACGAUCGCUUUGAUCACCACAGUCUCUAACUUGCUGCUUUCUCCAGAAGCCUUUUUAUGUAUGGGUUAGAAACUCUUUUUUCCCUAGUCAGAGCAGCCAGGCUGUACAAAAUCUGUUGGAAUUCUCGGGUGCCAA`: “RBNS enrichment (R)” 0.448.
For `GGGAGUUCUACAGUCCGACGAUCAGGACCAGGCACGUCAGCUCUCUGAGCCUCCCCUUCCCUUGUUGUCACAAGGGAAUAGAAGCAGAAGAAGCUGAGAGCCUCCCUAUUCCCAGAUGCCCUGGUGGAAUGACUGGAAUUCUCGGGUGCCAA`, “RBNS enrichment (R)” read 0.271.
`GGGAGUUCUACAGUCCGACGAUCCCGCUGGAGGGGUUUCAAUCCCCCACCCUGGGGCUCUUCUGCGCAGAAGCUGAAGUCUACGCUCCUCCCAAUCUUUGGUCCCAGUGCCGCUGUUCGCCUUCCUGCUGGUUUGGAAUUCUCGGGUGCCAA`: “RBNS enrichment (R)” 0.331.
`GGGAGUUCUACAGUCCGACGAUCAACCUGGUCCUCGGGGAAAAAGAGAAGUCACCUUUGGACCUUCGACCUAGCUUUGUCUUUGCCCCAGGUCCCCAUGAACUUCCCUGUCCUCAGCUGAAUGCCUCCAAGUCUGGAAUUCUCGGGUGCCAA` — result for “RBNS enrichment (R)”: 0.418.
Under “RBNS enrichment (R)”, `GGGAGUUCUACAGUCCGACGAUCACUGGCUUUGCACAGAAGUAUGCUCUACUUGCGUUGCUUUAGGGCAGGAUUCUAUUUUGAGGGAAAAGACAGUAUCCUUAUUACCUUUUGUUUGUUUAAUAGCACAAAUGUGGAAUUCUCGGGUGCCAA` is recorded as 0.599.
`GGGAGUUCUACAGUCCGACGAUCAGUUUCUUACAGAAAGUACCUGUGAUUUUUUUUAAUGUUUAGAUUUGUAGUCUAGUCUAUUCUGAAGAUAUUUGAUUAAUAUAUUUCUAAGAAGACCACUAGUCCCAUGAUGGAAUUCUCGGGUGCCAA` — result for “RBNS enrichment (R)”: 0.538.
Under “RBNS enrichment (R)”, `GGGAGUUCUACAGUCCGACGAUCCAGGGGACAGGAAUCCGUACCCAACUGCCCCGUUCUUUCUUCCCAUUCUUUCUUCCUAGGAUGCAUAAACUAUCUUGUCUCAUUUAUUUUUUAAUUUUUUUUCAGAUAGAUGGAAUUCUCGGGUGCCAA` is recorded as 0.502.
For `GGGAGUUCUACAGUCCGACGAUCUCGUAUUUGGCACACAGCAGAGGCCCAGAUAUUAGAAAGGCUCUAUUCCAAUAAACUAUGAGGACUGCCUUAUGGAUGAUUUAAGUGUCUCACUAAAGCAUGAAAUGUGAUGGAAUUCUCGGGUGCCAA`, “RBNS enrichment (R)” read 9.38.

Sample 4
Target: Histone acetyltransferase KAT6A, both winged helices, GST fusion (KAT6A, Homo sapiens, UniProt Q92794, residues 1-181)
Method: protein binding microarray
Molecule type: double-stranded DNA, one strand shown
Sample: in vitro
Concentration: not given
Notes: 8-mer, flanks averaged, mean of 2 arrays, mostly near background
Baseline: not given
Reading: higher = stronger binding
Residues (chain): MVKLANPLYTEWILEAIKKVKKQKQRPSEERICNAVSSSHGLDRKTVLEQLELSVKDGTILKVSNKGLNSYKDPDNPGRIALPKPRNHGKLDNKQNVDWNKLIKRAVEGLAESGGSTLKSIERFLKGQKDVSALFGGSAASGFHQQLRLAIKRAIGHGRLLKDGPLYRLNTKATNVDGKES
With `CCTGGGAG` the E-score was -0.121.
For `CAGCAACA`, the E-score was -0.17.
With `AACTTCAC` the E-score was -0.0141.
`CAGGAGGG` has an E-score of -0.298.
`ATGACGTG` gave an E-score of -0.0317.
The E-score of `ACGGTTCC` is reported as 0.167.
`ATTCACAC` gave an E-score of -0.105.
`CCCATTAG` has an E-score of -0.214.
`ATCCCCAA` has an E-score of -0.254.
For `GCTCCGCA`, the E-score was 0.0852.
With `TGACGGAA` the E-score was 0.288.
With `AGTGTCTC` the E-score was -0.143.
The E-score of `CCATTGAG` is reported as 0.0798.
`CCTAGTTA` gave an E-score of -0.0197.
For `AAGAAGAT`, the E-score was 0.0511.
`AGTCTCGA` has an E-score of -0.115.
With `AGTTGTAA` the E-score was -0.0416.
With `AGCTATTC` the E-score was -0.106.
For `ACTTTCTG`, the E-score was -0.0678.
`GGTCAGGA` gave an E-score of -0.0412.
`CGCGAGGC` gave an E-score of 0.297.
`CCCTATTC` gave an E-score of -0.197.
With `CTCTGTAC` the E-score was -0.0945.
`CTCCGGCC` gave an E-score of 0.129.
The E-score of `GCTGCACA` is reported as 0.0284.

For quick reference, copied from above (sample 2):
`PPVIIKYIIINAF [R12A]`: “normalised enrichment score” 0.467.
`PPAIIKYIIINRF [V3A]` — result for “normalised enrichment score”: 0.227.
For `PPVIIAYIIINRF [K6A]`, “normalised enrichment score” read 0.131.
For `PPVIIKYIIIARF [N11A]`, “normalised enrichment score” read 0.0691.
`APVIIKYIIINRF [P1A]`: “normalised enrichment score” 0.18.
For `PPVIIKYIAINRF [I9A]`, “normalised enrichment score” read 0.191.
